Results gathered from unrelated publications.
A part holds a random share of what one study measured. Changes are numbered by the printed parent chain.

Study 1
Target: CCND1, cyclin fold, Cln2 fusion (human)
Technique: yeast growth competition, sequencing
Sample: yeast
Notes: weak parent motif
Baseline: not given
Direction: higher = stronger binding
Starting sequence: RB1 docking peptide (human); PKPLKKLRFDIEG; partner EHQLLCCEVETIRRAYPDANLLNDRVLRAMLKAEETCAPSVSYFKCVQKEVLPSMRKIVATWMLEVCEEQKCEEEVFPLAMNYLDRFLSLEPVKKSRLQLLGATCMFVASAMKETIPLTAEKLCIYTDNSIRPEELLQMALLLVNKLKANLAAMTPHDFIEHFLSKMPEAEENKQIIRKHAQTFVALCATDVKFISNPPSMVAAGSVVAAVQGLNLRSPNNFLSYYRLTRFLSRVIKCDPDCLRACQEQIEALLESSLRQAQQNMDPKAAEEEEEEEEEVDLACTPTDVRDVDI
| Change | normalised enrichment score |
| --- | --- |
| PKPLKKLRFDIHG [E12H] | -0.391 |
| PKPSKKLRFDIEG [L4S] | 0.459 |
| LKPLKKLRFDIEG [P1L] | -0.579 |
| PKPLKCLRFDIEG [K6C] | 0.288 |
| PKQLKKLRFDIEG [P3Q] | -0.453 |
| PKPLKKLKFDIEG [R8K] | 0.29 |
| PKPLKKLRLDIEG [F9L] | 0.199 |
| PKPLKKLRVDIEG [F9V] | 0.336 |
| PKPLKKLDFDIEG [R8D] | 0.451 |
| PKPLKKLRFDIEW [G13W] | -0.322 |
| PKPLKKLRFDIEA [G13A] | 0.0315 |
| PKPLKQLRFDIEG [K6Q] | 0.0336 |
| PKPTKKLRFDIEG [L4T] | -0.417 |
| PKPLKYLRFDIEG [K6Y] | -0.601 |
| PKPLKKKRFDIEG [L7K] | 0.553 |

Study 2
Substance: PhoQ, residues 284 288 289 292 302 303 SACGEM
Technique: Sort-seq
Measured: YFP reporter
Sample: E. coli
Notes: PhoQ-PhoP variant library
Together with: 10 µM Mg2+
Baseline: high Mg2+ state
Direction: higher = stronger signaling
| target | fold induction |
| --- | --- |
| PhoP, residues 12 14 15 18 19 TQCLL (Escherichia coli, UniProt P23836) | 0.948 |
| PhoP, residues 12 14 15 18 19 ICWRQ (Escherichia coli, UniProt P23836) | 7.2 |
| PhoP, residues 12 14 15 18 19 VHTVL (Escherichia coli, UniProt P23836) | 6.26 |

Study 3
Target: Prothrombin, mature alpha-thrombin (F2, Homo sapiens, UniProt P00734)
Technique: aptamer microarray, sandwich
Form: DNA with 2'F-ANA
Sample: in vitro
Concentration: 200 nM
Notes: whole 15-mer aptamer, many near background
Together with: Cy3 exosite-II aptamer, 400 nM
Direction: higher = stronger binding
Oligonucleotide: GGTTGGTGTGGTTGG
| Modification | mean fluorescence intensity |
| --- | --- |
| 2'F-ANA at 1 3 4 7 8 12 13 14 15 | 158 a.u. |
| 2'F-ANA at 3 4 9 10 11 15 | 558 a.u. |
| 2'F-ANA at 3 8 10 12 14 | 479 a.u. |
| 2'F-ANA at 1 6 8 9 10 13 14 15 | 52 a.u. |
| 2'F-ANA at 1 2 3 4 5 7 9 13 | 50.9 a.u. |
| 2'F-ANA at 5 7 13 14 | 43.6 a.u. |
| 2'F-ANA at 2 3 5 6 10 11 13 15 | 53.1 a.u. |
| 2'F-ANA at 1 2 3 9 12 13 14 15 | 142 a.u. |
| 2'F-ANA at 1 3 5 7 9 12 13 14 | 48.7 a.u. |
| 2'F-ANA at 3 5 6 7 11 12 13 15 | 133 a.u. |
| 2'F-ANA at 3 4 5 6 7 8 9 10 12 13 14 | 45.1 a.u. |
| 2'F-ANA at 3 6 8 9 11 13 | 888 a.u. |
| 2'F-ANA at 1 2 3 7 8 9 11 12 14 15 | 93.9 a.u. |
| 2'F-ANA at 1 2 3 6 7 11 12 13 14 | 86.3 a.u. |
| 2'F-ANA at 2 4 6 7 10 11 12 15 | 96.4 a.u. |
| 2'F-ANA at 5 9 10 14 | 45.3 a.u. |
| 2'F-ANA at 2 4 6 9 10 12 13 14 | 61.4 a.u. |
| 2'F-ANA at 1 2 4 6 10 13 14 | 58.8 a.u. |
| 2'F-ANA at 3 5 7 8 9 10 12 13 14 | 127 a.u. |
| 2'F-ANA at 2 7 8 10 11 13 | 114 a.u. |
| 2'F-ANA at 1 3 4 6 7 11 13 | 127 a.u. |
| 2'F-ANA at 1 3 5 8 9 13 14 | 42.2 a.u. |

Study 4
Target: FOS, bZIP domain (human)
Technique: DHFR protein complementation
Sample: yeast
Notes: single substitutions, most at no-binding floor
Baseline: wild-type JUN-FOS pair
Direction: higher = stronger binding
Starting sequence: JUN, bZIP domain (human); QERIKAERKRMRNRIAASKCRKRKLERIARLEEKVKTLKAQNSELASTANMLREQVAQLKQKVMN; partner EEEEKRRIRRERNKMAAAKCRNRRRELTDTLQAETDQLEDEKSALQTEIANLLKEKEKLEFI
| Change | binding fitness |
| --- | --- |
| L52Q | -0.956 natural log |
| S43Q | 0.0609 natural log |
| Q41P | -1.37 natural log |
| K34Y | -0.121 natural log |
| V35T | -0.411 natural log |
| A57N | 0.00623 natural log |
| E33T | -0.232 natural log |
| T37I | -0.0195 natural log |
| T48L | -0.0902 natural log |
